# Published values from different studies.
# Numbered parts are unrelated; each lists some results of a single study.
# Sequence of UniProt P08172 (whole entry, looked up): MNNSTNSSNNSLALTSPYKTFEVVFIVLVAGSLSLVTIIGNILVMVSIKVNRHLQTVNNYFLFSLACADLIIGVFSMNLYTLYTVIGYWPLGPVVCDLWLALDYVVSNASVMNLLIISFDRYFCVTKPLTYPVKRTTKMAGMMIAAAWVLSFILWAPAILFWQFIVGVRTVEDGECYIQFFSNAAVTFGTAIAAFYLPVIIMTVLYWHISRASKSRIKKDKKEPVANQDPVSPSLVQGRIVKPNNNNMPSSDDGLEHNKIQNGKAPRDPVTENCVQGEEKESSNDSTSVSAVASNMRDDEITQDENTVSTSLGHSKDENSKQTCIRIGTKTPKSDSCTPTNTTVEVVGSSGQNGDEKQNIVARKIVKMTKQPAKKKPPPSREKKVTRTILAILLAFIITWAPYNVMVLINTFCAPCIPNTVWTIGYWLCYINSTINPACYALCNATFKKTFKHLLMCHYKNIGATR

# Block 1 — technique: aptamer microarray, sandwich; form: DNA with 2'F-ANA; medium: in vitro; tested at: 200 nM; added: Cy3 exosite-II aptamer, 400 nM; reading: higher = stronger binding; strand: GGTTGGTGTGGTTGG
# Target: Prothrombin, mature alpha-thrombin (F2, Homo sapiens, UniProt P00734)
# Notes: whole 15-mer aptamer, many near background
Modification,mean fluorescence intensity [a.u.]
2'F-ANA at 2 4 5 10 11 12 13 14,48.1
2'F-ANA at 1 2 4 7 8 10 11 14,48.4
2'F-ANA at 3 5 6 7 12 13,176
2'F-ANA at 5 6 8 9 11 12 14,52.3
2'F-ANA at 3 4 9 11 12 14,366
2'F-ANA at 1 2 4 7 9 11 12 15,176
2'F-ANA at 1 5 8,66.3
2'F-ANA at 4 6 7 8 10 11,77.3

# Block 2 — technique: RNA Bind-n-Seq; form: RNA; medium: in vitro; tested at: 90 pmol; notes: 4-mer, random 30-nt RNA, single round; added: 3 µM DMDA-PatA, 2 mM ADP, 2 mM phosphate; baseline: input library; reading: higher = stronger binding
# Target: Eukaryotic initiation factor 4A-I (EIF4A1, Homo sapiens, UniProt P60842, residues 1-406, full length assumed)
# Sequence of UniProt P60842 (whole entry, looked up): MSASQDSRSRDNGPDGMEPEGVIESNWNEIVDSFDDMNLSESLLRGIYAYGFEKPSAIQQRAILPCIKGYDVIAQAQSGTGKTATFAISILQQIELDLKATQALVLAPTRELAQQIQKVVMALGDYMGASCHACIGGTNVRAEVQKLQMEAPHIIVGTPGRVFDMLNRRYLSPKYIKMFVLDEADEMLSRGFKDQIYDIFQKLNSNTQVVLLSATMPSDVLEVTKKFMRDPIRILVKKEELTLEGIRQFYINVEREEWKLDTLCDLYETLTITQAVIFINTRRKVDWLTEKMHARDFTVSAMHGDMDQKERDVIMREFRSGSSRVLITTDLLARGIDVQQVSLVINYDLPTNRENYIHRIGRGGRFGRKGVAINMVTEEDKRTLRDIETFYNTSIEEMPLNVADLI
Strand,4-mer enrichment
GAAA,1.19 fold
AUAC,0.686 fold
AAAC,0.745 fold
UGAA,1.14 fold
GCCA,0.613 fold
CACG,0.615 fold
UACC,0.603 fold
AUGG,1.09 fold

# Block 3 — technique: RNA Bind-n-Seq; form: RNA; medium: in vitro; tested at: 365 nM; baseline: no-protein control; reading: higher = stronger binding
# Target: RNA binding protein fox-1 homolog 2, RRM domain, GST-SBP tag (RBFOX2, Homo sapiens, UniProt O43251-10, residues 100-194)
# Notes: natural RNA segment, single round, ends assumed
Strand,RBNS enrichment (R)
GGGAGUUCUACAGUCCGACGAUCAGCUGGAGGGUCAGGAACUGUUACCUUCUUUCCCCUUGGCAUUAAUAAAUUUAAGUUAAUCCUUUUCACUCUUCCUUUGUUCUAUGUUUGCUCAAACCCAGUGUAUUGAUUGGAAUUCUCGGGUGCCAA,1.02
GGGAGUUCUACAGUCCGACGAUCUGUGCACCAAGCAGGAAAUGAAAAUGUCUUGUGUUACCUGAAAACACUGUGCACAUCUGUGUCUUGUUUGGAAUAUUGUCCAUUGUCCAAUCCUAUGUUUUUGUUCAAAGUGGAAUUCUCGGGUGCCAA,0.542
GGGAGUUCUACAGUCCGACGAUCUUCCACAAAGGAGGGCUGAGAGUGAACGUGAUCAUACGUAGUUGUGAAAUCGGUUUGAUUGAGUGGGCUCUGAAAGGGGCAUUUAAUGGUCUUGUUUCUUCAUAACUCACUGGAAUUCUCGGGUGCCAA,0.518
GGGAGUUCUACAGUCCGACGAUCUCACUGCCACUUUGACAAAAGCCCAAUUAGAAGCCAGUCUCUAGUUCCUUAAACAAAACAGACAGAGUAAGGAAAGGAAGGAGGGUGGCAGCCAGCUGGCUGGACACUCGUGGAAUUCUCGGGUGCCAA,0.404
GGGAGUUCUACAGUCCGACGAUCGGGCAAUGCUUGAUCUUAUACAACACUUACACUCUAGAAUAUUUUGUACAUAUGUUUGUUCUUUUUUUUUUUUUUUUUGUACAGACUAUUUACUUGUUCAAAAAAAACAGUGGAAUUCUCGGGUGCCAA,1.08
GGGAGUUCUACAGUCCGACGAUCCUUUGCACUGAAGGAGGACUUGGACUGACCUCCGACUUACAUAGUUUGUUAAGAGCUGUCUUUAGCAUUCUGCUGGAAGAAUUUUGGGAGCAACAGACUGGGACAGAGCCUGGAAUUCUCGGGUGCCAA,0.45
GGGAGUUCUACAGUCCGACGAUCUUUUCUGUGUGUGUCCUUGUUGCUUUUGCCAGAAAAAGUGGAUUUGACAUGCGUGCCCCGAUGCCACCAUAGCCCCUAGGCCAACAAUGUCAUGGUCUAAACACCAAAAAUGGAAUUCUCGGGUGCCAA,0.576
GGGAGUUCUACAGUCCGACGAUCUCUUUCUUUUGGUGACUUACACCACAUGUAAUGACGCUAUGACUAAUUCUGCUCCCAAGCCCUUGUAUCUUGGGCUUCAUUUUAGGCUCAUGUGUCAGAUCUGCAUGCAUUGGAAUUCUCGGGUGCCAA,4

# Other studies, line by line
Compound,target,assay,conditions,endpoint,result
COCCc1ccc(-c2c(C)nc3c(N4CCOCC4)ccnn23)cn1,"Muscarinic acetylcholine receptor M2 (CHRM2, Homo sapiens, UniProt P08172)","binding, radioligand binding",10 µM,inhibition,10.4%

# Excerpt of the above (block 3):
Strand,RBNS enrichment (R)
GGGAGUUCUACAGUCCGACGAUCCUUUGCACUGAAGGAGGACUUGGACUGACCUCCGACUUACAUAGUUUGUUAAGAGCUGUCUUUAGCAUUCUGCUGGAAGAAUUUUGGGAGCAACAGACUGGGACAGAGCCUGGAAUUCUCGGGUGCCAA,0.45
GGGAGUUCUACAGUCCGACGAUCUUUUCUGUGUGUGUCCUUGUUGCUUUUGCCAGAAAAAGUGGAUUUGACAUGCGUGCCCCGAUGCCACCAUAGCCCCUAGGCCAACAAUGUCAUGGUCUAAACACCAAAAAUGGAAUUCUCGGGUGCCAA,0.576
